Published values from different studies.
Protocols differ between the studies behind these lines.
MAP2K4: Dual specificity mitogen-activated protein kinase kinase 4 (MAP2K4, Homo sapiens, UniProt P45985)

COc1cc(Nc2nccc(-c3cnn4nc(OC)ccc34)n2)cc(C(F)(F)F)c1  remaining binding (MAP2K4; binding, competition with immobilised ligand; 1 µM): 94%
NC(=O)[C@@H](O)C[C@H]1CCc2sc3ncnc(O[C@H]4CC[C@H](N5CCOCC5)CC4)c3c21  inhibition (MAP2K4; enzyme activity, inhibitor; 10 µM): -3%
C=CC(=O)N1CCCC(n2c(=O)c3ncccc3n(Cc3ccc(Oc4ccccc4)cc3)c2=O)C1 (centres unmarked)  remaining binding (MAP2K4; cell-free assay, competition with immobilised ligand; 1 µM): 95%
NC(=O)C[C@H]1CCc2sc3ncnc(O[C@H]4CC[C@H](N5CCOCC5)CC4)c3c21  inhibition (MAP2K4; enzyme activity, inhibitor; 10 µM): -2%
Cc1cnc2nc1Nc1cccc(c1)COC/C=C/COCc1cc(ccc1OCCN1CCOCC1)N2  remaining binding (MAP2K4; binding, competition with immobilised ligand; 0.1 µM): 98%
COc1cc(Nc2nc(C)cc(-c3cnn4nc(OC)ccc34)n2)cc(C(F)(F)F)c1  remaining activity (MAP2K4; inhibitor; 1 µM, MEK4; relative to: control): 74%
Cc1ccc(-c2c(/C=C(\C#N)C(=O)NC(C)C)n(CCCO)c3ncnc(N)c23)cc1  remaining binding (MAP2K4; cell-free assay, competition with immobilised ligand; 1 µM): 75%
C=CC(=O)N1CCc2ccc(-n3c(=O)ccc4cnc5ccc(-c6cnn(C)c6)cc5c43)cc21  remaining binding (MAP2K4; KINOMEscan; 1 µM; relative to: DMSO control): 100%
Nc1ncc(-c2cc(-c3cnn(CC(F)(F)F)c3)ncc2F)nc1C(=O)NC1CNCC(F)C1 (centres unmarked)  remaining activity (MAP2K4; enzyme activity; 1 µM; relative to: DMSO control): 97.6%
CCN1CCN(Cc2ccc(C(=O)Nc3ccc(C)c(NCc4cnc5[nH]ccc5c4OC)c3)cc2C(F)(F)F)CC1  remaining binding (MAP2K4; binding, competition with immobilised ligand; 1 µM): 91%
O=C(C1CCCN(Cc2ccc(Cl)cc2)C1)N1CCCCC1.O=C(O)C(=O)O (centres unmarked)  relative translation (Trypanosoma cruzi; reporter mRNA translation, inhibitor, measured: capped polyadenylated Renilla luciferase mRNA; cell-free extract; concentration not given; relative to: control RNA): 110%
CNC(=O)C1CCN(c2cc(C)c(F)cc2NC(=O)c2ccc(-c3cc(O)ccc3C)c(C)c2)CC1  remaining binding (MAP2K4; binding, competition with immobilised ligand; 1 µM): 100%
Nc1ncc2c(n1)-c1c([nH]c3ccc(C4=CCOCC4)cc13)CCC2  remaining binding (MAP2K4; binding, competition with immobilised ligand; 1 µM): 86%
CN1CCN(Cc2ccc(-c3ccc(CO[C@H]4CCC[C@@H]4NC(=O)c4cc(-c5cnn(C)c5)cnc4N)cc3)cc2)CC1  inhibition (MAP2K4; enzyme activity, inhibitor; 0.1 µM): 28%
CCCCCCCCCCCCC/C=C/C=O  isoTOP-ABPP competition ratio (MAP2K4; competitive isoTOP-ABPP; Ramos soluble proteome; 100 µM, together with: iodoacetamide probe; relative to: DMSO over compound-treated, higher = stronger cysteine blockade): 1.1
C/C(=N\NC(=O)c1ccc(Cl)cc1)c1ccccn1  relative translation (Trypanosoma cruzi; reporter mRNA translation, inhibitor, measured: capped polyadenylated Renilla luciferase mRNA; cell-free extract; concentration not given; relative to: control RNA): 112%
COc1c(OCCCN2CCOCC2)ccc2c1N=C(NC(=O)c1cnc(N)nc1)N1CCN=C21  remaining activity (MAP2K4; kinase activity, inhibitor; 1 µM; relative to: untreated control): 78%
C=CC(=O)N1Cc2nc(-c3cc(-c4cc(Cl)cnc4Cl)c(F)cc3F)n(-c3ccncn3)c2C1  inhibition (MAP2K4; cell-free assay, inhibitor; 1 µM): 1.1%
CC(C)=CC1OC(C)(C)C2C=C3C(=O)C(Cl)=CC(O)C3C3C(O)C4OC4C(=O)C132 (centres unmarked)  remaining binding (MAP2K4; cell-free assay, competition with immobilised ligand; 10 µM): 81%
CCCCCC(O)/C=C/C=O (centres unmarked)  isoTOP-ABPP competition ratio (MAP2K4; competitive isoTOP-ABPP; Ramos soluble proteome; 100 µM, together with: iodoacetamide probe; relative to: DMSO over compound-treated, higher = stronger cysteine blockade): 1.2
COc1c(Cl)cccc1Nc1c(-c2ccncc2C#C[C@@]2(C)CCCN2C(=O)/C=C/CN(C)C)[nH]c2c1C(=O)NCC2  remaining binding (MAP2K4; binding, competition with immobilised ligand; 3 µM): 92%
Cc1c[nH]c2nccc(-c3ccc(C(=O)N[C@@H]4c5c(F)cc(C(F)F)cc5C[C@@H]4O)cn3)c12  remaining binding (MAP2K4; binding, competition with immobilised ligand; 3 µM): 2.6%
CNC1C[S+]2CC[S+]3CC[S+](C1)[Ru-4]321([N]=C=S)[n]2c3ccc(OC)cc3c3c4c(c5cc(F)c[n+]1c5c32)C(=O)NC4=O (centres unmarked)  remaining binding (MAP2K4; KinomeScan; 0.1 µM; relative to: untreated): 100%

For quick reference, copied from above:
C/C(=N\NC(=O)c1ccc(Cl)cc1)c1ccccn1  relative translation (Trypanosoma cruzi; reporter mRNA translation, inhibitor, measured: capped polyadenylated Renilla luciferase mRNA; cell-free extract; concentration not given; relative to: control RNA): 112%
COc1c(OCCCN2CCOCC2)ccc2c1N=C(NC(=O)c1cnc(N)nc1)N1CCN=C21  remaining activity (MAP2K4; kinase activity, inhibitor; 1 µM; relative to: untreated control): 78%
